Published values pooled from the literature.
Protocols differ between the studies behind these lines. “And” joins repeats or separate records; there may be more than shown. Numbers after ± are the reported error.
CYP1B1: Cytochrome P450 1B1 (CYP1B1, Homo sapiens, UniProt Q16678)
Chain of UniProt Q16678 (whole entry, looked up): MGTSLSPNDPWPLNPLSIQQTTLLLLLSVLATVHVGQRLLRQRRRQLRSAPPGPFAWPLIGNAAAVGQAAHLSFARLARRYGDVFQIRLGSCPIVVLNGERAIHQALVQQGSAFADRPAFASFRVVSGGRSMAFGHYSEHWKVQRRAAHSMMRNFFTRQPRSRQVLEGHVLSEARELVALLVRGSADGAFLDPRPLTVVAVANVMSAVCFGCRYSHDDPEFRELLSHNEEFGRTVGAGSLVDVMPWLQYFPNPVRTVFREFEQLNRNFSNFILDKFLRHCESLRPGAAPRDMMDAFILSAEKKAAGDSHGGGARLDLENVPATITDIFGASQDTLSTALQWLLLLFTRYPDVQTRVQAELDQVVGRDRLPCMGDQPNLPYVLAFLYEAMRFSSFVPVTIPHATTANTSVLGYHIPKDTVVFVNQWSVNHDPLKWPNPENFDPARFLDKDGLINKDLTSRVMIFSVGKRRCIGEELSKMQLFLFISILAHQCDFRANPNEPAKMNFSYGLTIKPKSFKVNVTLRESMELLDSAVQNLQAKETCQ
CYP2D6: Cytochrome P450 2D6 (CYP2D6, Homo sapiens, UniProt P10635)
Chain of UniProt P10635 (whole entry, looked up): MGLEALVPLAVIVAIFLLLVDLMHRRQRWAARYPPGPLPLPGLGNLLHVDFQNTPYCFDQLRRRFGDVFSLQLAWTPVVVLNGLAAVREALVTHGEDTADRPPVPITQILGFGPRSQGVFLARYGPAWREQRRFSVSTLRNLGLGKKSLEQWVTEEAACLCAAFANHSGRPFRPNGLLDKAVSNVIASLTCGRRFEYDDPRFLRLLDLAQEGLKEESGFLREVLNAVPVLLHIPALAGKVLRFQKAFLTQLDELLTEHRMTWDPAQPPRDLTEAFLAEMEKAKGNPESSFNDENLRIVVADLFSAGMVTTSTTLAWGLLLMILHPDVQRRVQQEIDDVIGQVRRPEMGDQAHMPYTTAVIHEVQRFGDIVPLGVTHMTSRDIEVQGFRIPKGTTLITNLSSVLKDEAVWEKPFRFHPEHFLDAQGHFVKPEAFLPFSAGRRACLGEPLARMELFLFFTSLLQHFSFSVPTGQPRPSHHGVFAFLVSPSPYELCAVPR
CYP2B6: Cytochrome P450 2B6 (CYP2B6, Homo sapiens, UniProt P20813)
Chain of UniProt P20813 (whole entry, looked up): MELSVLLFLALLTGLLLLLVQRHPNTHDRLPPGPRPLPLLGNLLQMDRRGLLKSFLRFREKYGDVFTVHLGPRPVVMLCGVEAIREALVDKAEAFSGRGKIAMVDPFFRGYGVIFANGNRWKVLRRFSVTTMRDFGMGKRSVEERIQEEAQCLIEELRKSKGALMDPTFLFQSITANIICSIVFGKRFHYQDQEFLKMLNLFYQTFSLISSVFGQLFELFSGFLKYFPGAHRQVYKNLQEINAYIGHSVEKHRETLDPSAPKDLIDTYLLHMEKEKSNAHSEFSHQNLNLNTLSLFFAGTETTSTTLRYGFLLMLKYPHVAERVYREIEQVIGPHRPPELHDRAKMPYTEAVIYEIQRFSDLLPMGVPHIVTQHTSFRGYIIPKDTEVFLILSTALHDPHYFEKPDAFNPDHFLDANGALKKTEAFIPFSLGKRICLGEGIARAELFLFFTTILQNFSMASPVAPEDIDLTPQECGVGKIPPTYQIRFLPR
Ahr: Aryl hydrocarbon receptor (Ahr, Mus musculus, UniProt P30561)
Chain of UniProt P30561 (whole entry, looked up): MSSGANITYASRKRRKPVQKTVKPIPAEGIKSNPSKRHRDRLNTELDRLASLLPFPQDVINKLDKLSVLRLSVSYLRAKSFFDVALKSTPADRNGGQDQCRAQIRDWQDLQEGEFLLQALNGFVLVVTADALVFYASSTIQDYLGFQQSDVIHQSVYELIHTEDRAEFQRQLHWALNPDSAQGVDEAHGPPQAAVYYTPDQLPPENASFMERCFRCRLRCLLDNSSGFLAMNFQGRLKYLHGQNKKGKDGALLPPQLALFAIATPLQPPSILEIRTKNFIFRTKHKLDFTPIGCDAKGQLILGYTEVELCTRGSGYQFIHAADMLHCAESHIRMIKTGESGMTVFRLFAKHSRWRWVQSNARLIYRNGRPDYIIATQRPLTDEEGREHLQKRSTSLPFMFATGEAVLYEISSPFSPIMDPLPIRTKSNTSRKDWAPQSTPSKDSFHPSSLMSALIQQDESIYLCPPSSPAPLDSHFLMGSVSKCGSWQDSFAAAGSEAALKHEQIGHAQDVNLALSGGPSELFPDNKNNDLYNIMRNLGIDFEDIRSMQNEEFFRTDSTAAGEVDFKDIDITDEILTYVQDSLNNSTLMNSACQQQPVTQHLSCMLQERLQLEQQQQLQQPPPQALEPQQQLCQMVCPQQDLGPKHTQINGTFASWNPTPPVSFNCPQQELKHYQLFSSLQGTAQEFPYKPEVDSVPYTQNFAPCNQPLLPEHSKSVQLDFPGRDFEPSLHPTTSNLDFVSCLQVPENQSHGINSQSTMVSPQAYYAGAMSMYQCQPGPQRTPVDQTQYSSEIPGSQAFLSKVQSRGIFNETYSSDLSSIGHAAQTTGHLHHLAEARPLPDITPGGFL
CYP2E1: Cytochrome P450 2E1 (CYP2E1, Homo sapiens, UniProt P05181)
Chain of UniProt P05181 (whole entry, looked up): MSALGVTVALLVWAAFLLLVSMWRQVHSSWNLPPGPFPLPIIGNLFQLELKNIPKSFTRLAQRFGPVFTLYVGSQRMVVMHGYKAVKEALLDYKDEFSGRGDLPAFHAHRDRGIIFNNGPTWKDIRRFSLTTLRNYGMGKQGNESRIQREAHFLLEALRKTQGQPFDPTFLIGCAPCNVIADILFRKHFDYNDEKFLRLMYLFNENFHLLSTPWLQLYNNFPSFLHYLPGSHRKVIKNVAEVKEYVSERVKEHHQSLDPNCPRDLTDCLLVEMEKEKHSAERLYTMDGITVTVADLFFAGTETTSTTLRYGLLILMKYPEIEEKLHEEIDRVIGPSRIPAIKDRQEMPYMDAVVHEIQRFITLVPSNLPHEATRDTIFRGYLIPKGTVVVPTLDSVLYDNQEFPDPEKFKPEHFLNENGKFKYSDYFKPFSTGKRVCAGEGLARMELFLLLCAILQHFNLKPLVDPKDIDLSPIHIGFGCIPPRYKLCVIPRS
Chain of UniProt O94956 (whole entry, looked up): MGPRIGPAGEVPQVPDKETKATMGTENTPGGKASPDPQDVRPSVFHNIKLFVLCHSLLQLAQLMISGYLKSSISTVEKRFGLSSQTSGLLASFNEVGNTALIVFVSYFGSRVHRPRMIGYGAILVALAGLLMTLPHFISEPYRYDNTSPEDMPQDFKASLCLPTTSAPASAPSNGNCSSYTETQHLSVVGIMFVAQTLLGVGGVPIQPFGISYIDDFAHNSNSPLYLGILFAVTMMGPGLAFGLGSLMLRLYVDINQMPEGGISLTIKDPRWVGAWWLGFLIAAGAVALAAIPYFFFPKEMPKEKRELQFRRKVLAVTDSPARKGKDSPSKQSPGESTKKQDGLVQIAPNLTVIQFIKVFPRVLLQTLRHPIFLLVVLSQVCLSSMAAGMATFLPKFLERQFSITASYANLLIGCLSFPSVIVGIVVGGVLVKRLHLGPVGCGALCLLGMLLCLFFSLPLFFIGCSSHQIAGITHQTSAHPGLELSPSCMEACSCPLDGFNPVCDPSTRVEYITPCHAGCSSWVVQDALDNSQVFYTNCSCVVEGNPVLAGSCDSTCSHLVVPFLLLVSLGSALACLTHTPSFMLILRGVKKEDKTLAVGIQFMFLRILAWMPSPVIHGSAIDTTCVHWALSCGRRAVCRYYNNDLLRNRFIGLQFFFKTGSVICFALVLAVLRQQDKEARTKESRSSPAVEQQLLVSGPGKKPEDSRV
Chain of UniProt P14416 (whole entry, looked up): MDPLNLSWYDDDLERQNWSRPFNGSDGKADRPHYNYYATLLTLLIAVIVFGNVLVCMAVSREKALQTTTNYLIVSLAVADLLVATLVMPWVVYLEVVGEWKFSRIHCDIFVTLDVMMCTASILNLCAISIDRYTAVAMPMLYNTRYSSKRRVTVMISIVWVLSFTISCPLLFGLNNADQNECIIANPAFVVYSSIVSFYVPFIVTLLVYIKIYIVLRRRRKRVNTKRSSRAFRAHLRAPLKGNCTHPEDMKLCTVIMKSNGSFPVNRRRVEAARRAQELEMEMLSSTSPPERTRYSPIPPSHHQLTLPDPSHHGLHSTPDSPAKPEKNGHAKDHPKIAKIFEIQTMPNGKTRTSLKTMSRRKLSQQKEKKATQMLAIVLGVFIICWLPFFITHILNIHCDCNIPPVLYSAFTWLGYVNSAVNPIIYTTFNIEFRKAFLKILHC
Chain of UniProt P35869 (whole entry, looked up): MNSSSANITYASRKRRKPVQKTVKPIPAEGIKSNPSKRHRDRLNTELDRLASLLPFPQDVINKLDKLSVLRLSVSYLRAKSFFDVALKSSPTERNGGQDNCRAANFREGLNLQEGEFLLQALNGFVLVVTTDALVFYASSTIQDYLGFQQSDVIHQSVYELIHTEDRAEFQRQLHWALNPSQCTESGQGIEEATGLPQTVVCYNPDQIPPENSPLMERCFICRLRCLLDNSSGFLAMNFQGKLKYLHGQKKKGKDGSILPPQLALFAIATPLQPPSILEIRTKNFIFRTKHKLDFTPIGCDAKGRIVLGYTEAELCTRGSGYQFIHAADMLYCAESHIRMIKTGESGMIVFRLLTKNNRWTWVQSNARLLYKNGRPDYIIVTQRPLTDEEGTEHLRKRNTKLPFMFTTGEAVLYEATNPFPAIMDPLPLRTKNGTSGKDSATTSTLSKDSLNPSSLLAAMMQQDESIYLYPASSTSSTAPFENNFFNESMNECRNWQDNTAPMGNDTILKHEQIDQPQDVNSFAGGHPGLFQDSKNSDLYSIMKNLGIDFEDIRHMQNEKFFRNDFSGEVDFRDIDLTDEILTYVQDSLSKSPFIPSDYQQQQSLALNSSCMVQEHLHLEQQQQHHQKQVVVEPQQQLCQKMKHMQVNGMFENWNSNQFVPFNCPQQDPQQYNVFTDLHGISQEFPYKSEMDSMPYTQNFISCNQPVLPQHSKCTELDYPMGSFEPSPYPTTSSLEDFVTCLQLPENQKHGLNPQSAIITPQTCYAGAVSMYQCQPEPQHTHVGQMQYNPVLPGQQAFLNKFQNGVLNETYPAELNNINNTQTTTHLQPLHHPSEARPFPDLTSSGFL

With `C#CCOc1ccc2ccccc2c1` the Kd was 97000 ± 19000 nM (CYP1B1; reverse type I spectral binding; pH 7.4).
`Oc1ccc(/C=C/c2cc(O)cc(O)c2)cc1` has a Km of 708 ± 87 µM (UGT1A1 human recombinant; substrate, refers to: 3-glucuronide; pH 7.4).
Under “maximum α-helix content”, `CC(C)C[C@H](NC(=O)[C@H](CCC(=O)O)NC(=O)[C@H](C)NC(=O)[C@H](CCC(=O)O)NC(=O)[C@H](CCC(=O)O)NC(=O)[C@H](Cc1c[nH]cn1)NC(=O)[C@H](CCCNC(=N)N)NC(=O)[C@H](CCC(=O)O)NC(=O)[C@H](CC(N)=O)NC(=O)[C@H](CCCCN)NC(=O)[C@H](CC(C)C)NC(=O)[C@H](CCCNC(=N)N)NC(=O)[C@H](CCC(N)=O)NC(=O)[C@H](CC(C)C)NC(=O)[C@H](CCC(=O)O)NC(=O)[C@H](C)NC(=O)[C@H](CC(=O)O)NC(=O)[C@H](C)NC(=O)[C@@H](NC(=O)[C@H](CC(C)C)NC(=O)[C@H](CCCCN)NC(=O)[C@H](CCC(=O)O)NC(=O)[C@@H](NC(=O)[C@H](CO)NC(=O)CN)C(C)C)[C@@H](C)O)C(=O)N[C@@H](CCC(=O)O)C(=O)N[C@@H](CCCNC(=N)N)C(=O)N[C@@H](CC(C)C)C(=O)N[C@@H](CCCCN)C(=O)N[C@@H](CO)C(=O)N[C@@H](CCC(=O)O)C(=O)N[C@@H](Cc1ccc(O)cc1)C(=O)O` is recorded as 74% (Plasminogen, kringle 2 domain (PLG, Homo sapiens, UniProt P00747, C188G/E240D/L256Y); circular dichroism; 30 µM, pH 7.4, room temperature, added: titrated with PLG).
For `CCC[S+]([O-])c1ccc2[nH]c(NC(=O)OC)nc2c1` (stereo not drawn), the inhibition was < 0% (CYP2D6; inhibitor; human liver microsomes; 2 µM, pH 7.4, added: dextromethorphan).
For `C#CCOc1ccc(-c2ccc(OCC#C)cc2)cc1`, the Kd was 23000 ± 4300 nM (CYP1B1; reverse type I spectral binding; pH 7.4).
For `S=P(N1CC1)(N1CC1)N1CC1`, the remaining activity was 10.8% (CYP2B6; enzyme activity, inhibitor; pooled human liver microsomes; concentration not given).
For `O=C(O)COc1ccc(C(=O)c2cccs2)c(Cl)c1Cl`, the inhibition was 65 to 78% (CYP2C9, human; inhibitor, refers to: 11-hydroxy-THC; human liver microsomes, six donors; 50 µM, with CYP3cide and benzylnirvanol, added: THC 2 µM).
`[123I]c1cncc(OC[C@@H]2CCN2)c1` has a tissue/plasma ratio of 23.8 (SPECT; human, occipital lobe; intravenous bolus plus infusion, 7.7 mCi; relative to: tissue over plasma).
For `CC[N+]1=C(C=CC=CC=C2N(CCCCCC(=O)NCCN3C(=O)CC(SC[C@@H](NC(=O)[C@@H](CCCNC(=N)N)NC(=O)[C@@H](CCCNC(=N)N)NC(=O)[C@@H](CCCNC(=N)N)NC(=O)[C@@H](CCCNC(=N)N)NC(=O)[C@@H](CCCNC(=N)N)NC(=O)[C@@H](CCCNC(=N)N)NC(=O)[C@@H](CCCNC(=N)N)NC(=O)[C@@H](CCCNC(=N)N)NC(=O)[C@@H](CCCNC(=N)N)NC(=O)[C@H](CC(C)C)NC(=O)[C@H](CCCCN)NC(=O)[C@H](CC(C)C)NC(=O)[C@H](CCC(N)=O)NC(=O)[C@H](CC(C)C)NC(=O)[C@H](CCCNC(=N)N)NC(=O)CCCCCNC(=O)[C@@H](CCC(=O)O)NC(=O)[C@@H](CCC(=O)O)NC(=O)[C@@H](CCC(=O)O)NC(=O)[C@@H](CCC(=O)O)NC(=O)[C@@H](CCC(=O)O)NC(=O)[C@@H](CCC(=O)O)NC(=O)[C@@H](CCC(=O)O)NC(=O)[C@@H](CCC(=O)O)NC(=O)[C@H](N)CCC(=O)O)C(N)=O)C3=O)c3ccc(S(=O)(=O)O)cc3C2(C)C)C(C)(C)c2cc(S(=O)(=O)[O-])ccc21` (stereo partly drawn), the cleavage was 93 ± 2.9% (Serine protease 1 (PRSS1, Bos taurus, UniProt P00760); substrate cleavage, substrate, Tricine gel; 5 µM, 2 h, added: enzyme 50 nM).
`c1ccc2cc3c(ccc4ccccc43)cc2c1` has a Kd of < 2500 nM and 2000 nM (CYP1B1; binding, fluorescence).
The EC50 of `indolo[3,2-b]carbazole` is reported as 0.6 nM (AHR (Homo sapiens, UniProt P35869)).
With `CC[C@H](C)[C@H](NC(=O)CN)C(=O)N[C@@H](CCCNC(=N)N)C(=O)N[C@@H](CCCNC(=N)N)C(=O)N[C@@H](Cc1ccccc1)C(=O)N[C@@H](CC(C)C)C(=O)N[C@@H](CCCNC(=N)N)C(=O)N[C@]1(C)CCCCCCC=CCCC[C@@](C)(C(=O)N[C@@H](Cc2ccccc2)C(=O)N[C@@H](CCCNC(=N)N)C(N)=O)NC(=O)[C@H](CCCNC(=N)N)NC(=O)[C@H](C(C)C)NC(=O)[C@H](Cc2ccccc2)NC(=O)[C@H](CCCNC(=N)N)NC(=O)[C@H](CCCNC(=N)N)NC(=O)[C@H](C)NC1=O` the remaining compound was 70 to 80% (Trypsin (Sus scrofa, UniProt P00761); UPLC; NH4HCO3 buffer 50 mM; concentration not given, 24 h, pH 7.8, 37 °C, added: Trypsin 0.2 U/mL).
`CNC(C)Cc1ccc2c(c1)OCO2` (racemic) gave a mood rating of 27.3 (visual analog scale, refers to: Restless; human; oral, 1.5 mg/kg, mean over session, unit not given; relative to: pre-dose baseline).
The Ki of `c1ccc(CCN2CCCCC2)cc1` is reported as > 10000 nM (DRD2 (Homo sapiens, UniProt P14416); binding; CHOp; added: [3H]YM-09151-2 0.21 nM).
`C[C@]12CC[C@@H]3c4ccc(OS(=O)(=O)O)cc4CC[C@H]3[C@@H]1CCC2=O`: cellular uptake “increased” (SLCO2B1 (Homo sapiens, UniProt O94956); substrate; HEK293 overexpressing OATP2B1; relative to: vector control).
For `CC(C)C=Cc1c(O)cc(/C=C/c2ccc(O)c(O)c2)cc1O`, the Km was 52.9 ± 3.2 µM (UGT1A7 human; 4'-O-glucuronide formation, substrate; pH 7.4).
For `Clc1ccc(-c2cc(Cl)c(Cl)c(Cl)c2Cl)cc1Cl`, the Ki was 284 nM (Ahr; binding, competitor; in vitro expressed receptor, added: [3H]TCDD).
`CC(C)(O)c1ccccc1CC[C@@H](SCC1(CC(=O)O)CC1)c1cccc(/C=C/c2ccc3ccc(Cl)cc3n2)c1` has an inhibition of < 0% (CYP2D6; inhibitor; human liver microsomes; 10 µM, pH 7.4, added: dextromethorphan).
For `C#CCOc1ccccc1-c1ccccc1OCC#C`, the Kd was 30000 ± 4500 nM (CYP1B1; reverse type I spectral binding; pH 7.4).
`Clc1ccc(-c2cc(Cl)c(Cl)c(Cl)c2)cc1` has a Ki of 34 nM (Ahr; binding, competitor; in vitro expressed receptor, added: [3H]TCDD).
For `O=[N+]([O-])c1ccc(O)cc1`, the hydroxylation rate was 8.5 ± 1.4 min⁻¹ (CYP2E1; substrate; pooled human liver microsomes; 250 µM, pH 7.4, added enzyme to P450 molar ratio 0.96).
`Cc1sc(=NC(=O)C2C(C)(C)C2(C)C)n(CCO[11CH3])c1C` gave a brain distribution of ~0.3 %ID/g tissue (Cnr2 (Mus musculus, UniProt P47936); CD1 mouse, control, brain regions; 60 min, radiolabelled compound).
With `CNC(=O)Oc1cc(C)c(SC)c(C)c1` the inhibition was < 0% (CYP2D6; inhibitor; human liver microsomes; 2 µM, pH 7.4, added: dextromethorphan).
Under “Job's plot maximum mole fraction”, `COCCOCCOc1ccnc(C2=N[C@@](C)(C(=O)[O-])CS2)c1O.[Na+]` is recorded as 0.677 (Fe(III); Job's plot; pH 7.4, total 1.0 mM).
The EC50 of `indolo[3,2-b]carbazole` is reported as 0.98 nM (Ahr; reporter gene, activator; H1L7.5c3 (mouse); 6 h).
`CN[C@@](C)(C[18F])C(=O)O` gave a tracer uptake of 2.6 %ID/g (SK-OV-3 tumour model; host not given, heart; 1 h, tumour-bearing).
`O=S(=O)(O)Oc1ccc(-c2ccc(Cl)c(Cl)c2)cc1` has a Km of 16.6 ± 3.2 µM (sulfatase, human liver microsomes; substrate; pH 7.4, 37 °C).
For `Clc1ccc(-c2cc(Cl)c(Cl)c(Cl)c2)cc1Cl`, the EC50 was 4.7 ± 3.2 nM (Ahr; reporter gene, agonist; Hepa-1c1c7; 24 h).
`O=C1Nc2ccc(Cl)cc2[C@@](C#CC2CC2)(C(F)(F)F)O1` has an AUC(0-t) of 5560 ng·h/mL (CYP2B6; healthy human, plasma; oral, 50 mg, added: midazolam 2 mg, no ritlecitinib).
With `O=S(=O)(O)Oc1ccc(-c2ccc(Cl)cc2)cc1` the Km was 41 ± 18.4 µM (sulfatase, human liver microsomes; substrate; pH 7.4, 37 °C).
For `CSc1nc2cc(Cl)c(Oc3cccc(Cl)c3Cl)cc2[nH]1`, the inhibition was 4.19% (CYP2D6; inhibitor; human liver microsomes; 10 µM, pH 7.4, added: dextromethorphan).
`OC[C@H](O)c1ccccc1` has a residual activity of 26% (CYP2E1; enzyme activity, inhibitor; human liver microsomes; concentration not given, at high concentration).
For `C#CCOCc1ccc2ccccc2c1`, the Kd was 100000 ± 17000 nM (CYP1B1; reverse type I spectral binding; pH 7.4).
`C[C@H]1CNCCc2ccc(Cl)cc21` gave a half-life of 1.8 h (male Sprague-Dawley rat, plasma; subcutaneous, 1 mg/kg, single dose).
With `CCCSc1ccc2nc(NC(=O)OC)[nH]c2c1` the inhibition was < 0% (CYP2D6; inhibitor; human liver microsomes; 2 µM, pH 7.4, added: dextromethorphan).
For `Oc1cc(O)cc(/C=C/c2ccc(O)c(O)c2)c1`, the Km was 43.5 ± 8.1 µM (UGT1A7 human; 4'-O-glucuronide formation, substrate; pH 7.4).

Excerpt of the above:
Under “Job's plot maximum mole fraction”, `COCCOCCOc1ccnc(C2=N[C@@](C)(C(=O)[O-])CS2)c1O.[Na+]` is recorded as 0.677 (Fe(III); Job's plot; pH 7.4, total 1.0 mM).
With `CC[C@H](C)[C@H](NC(=O)CN)C(=O)N[C@@H](CCCNC(=N)N)C(=O)N[C@@H](CCCNC(=N)N)C(=O)N[C@@H](Cc1ccccc1)C(=O)N[C@@H](CC(C)C)C(=O)N[C@@H](CCCNC(=N)N)C(=O)N[C@]1(C)CCCCCCC=CCCC[C@@](C)(C(=O)N[C@@H](Cc2ccccc2)C(=O)N[C@@H](CCCNC(=N)N)C(N)=O)NC(=O)[C@H](CCCNC(=N)N)NC(=O)[C@H](C(C)C)NC(=O)[C@H](Cc2ccccc2)NC(=O)[C@H](CCCNC(=N)N)NC(=O)[C@H](CCCNC(=N)N)NC(=O)[C@H](C)NC1=O` the remaining compound was 70 to 80% (Trypsin (Sus scrofa, UniProt P00761); UPLC; NH4HCO3 buffer 50 mM; concentration not given, 24 h, pH 7.8, 37 °C, added: Trypsin 0.2 U/mL).
